Measured values collected from several papers.
Every numbered part comes from another study and shows a few of its results, in no order. ± gives the spread as reported.

Block 1
Target: U2AF2 148-342 (Homo sapiens, UniProt P26368)
UniProt P26368, sequence (whole entry, looked up): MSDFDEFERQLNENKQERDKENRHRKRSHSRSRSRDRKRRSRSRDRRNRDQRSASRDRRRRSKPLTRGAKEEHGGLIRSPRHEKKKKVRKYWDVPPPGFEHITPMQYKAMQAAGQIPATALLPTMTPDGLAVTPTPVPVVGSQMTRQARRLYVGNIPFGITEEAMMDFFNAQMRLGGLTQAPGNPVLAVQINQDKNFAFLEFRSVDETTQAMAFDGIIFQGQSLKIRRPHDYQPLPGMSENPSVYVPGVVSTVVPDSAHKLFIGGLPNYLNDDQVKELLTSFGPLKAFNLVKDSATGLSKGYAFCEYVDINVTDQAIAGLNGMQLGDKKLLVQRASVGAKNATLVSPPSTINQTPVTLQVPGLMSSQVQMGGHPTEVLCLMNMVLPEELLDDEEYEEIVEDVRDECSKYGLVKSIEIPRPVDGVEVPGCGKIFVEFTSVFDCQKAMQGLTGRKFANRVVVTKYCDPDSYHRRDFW
Method: sequencing of bound RNA
Molecule type: RNA
Notes: motif only
Each molecule: ssRNA
| Oligonucleotide | Kd |
| --- | --- |
| GUUUUUGCA | 7.71 µM |
| AGUUUGUGG | 0.5 µM |
| CUAAGUUUU | 4.1 µM |
| UAAGUUUUA | 17.8 µM |
| UUGUAUGUU | 14 µM |
| CAUUUGUAC | 7.6 µM |
| CUUCUGUCU | 5.11 µM |
| AUUUUUCUC | 2.78 µM |

Block 2
Target: PP6C (human)
Observed: co-immunoprecipitation
Method: IP-MS
Cells: CYB5R4 knockout cells
Concentration: concentration not given
Relative to: CYB5R4 knockout over parental
| Substance | log2 fold change |
| --- | --- |
| human cation-independent mannose-6-phosphate receptor | -1.81 |
| plectin (human) | 0.58 |
| human annexin A11 | 2.11 |
| Triosephosphate isomerase (human) | 0.58 |
| human GCN1 | -0.71 |
| human alpha-enolase | 1.36 |

Single results of other studies
SPT15 full length assumed: SPT15 full length assumed (Saccharomyces cerevisiae, UniProt P13393)
UniProt P13393, sequence (whole entry, looked up): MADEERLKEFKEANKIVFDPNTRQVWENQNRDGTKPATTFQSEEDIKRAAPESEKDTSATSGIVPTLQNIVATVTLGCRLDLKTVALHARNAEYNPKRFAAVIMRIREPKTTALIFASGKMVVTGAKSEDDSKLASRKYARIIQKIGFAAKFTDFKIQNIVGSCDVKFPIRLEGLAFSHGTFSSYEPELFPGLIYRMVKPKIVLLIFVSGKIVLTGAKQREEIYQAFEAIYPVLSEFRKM
| Substance | target or system | assay | system | conditions | measurement | result |
| --- | --- | --- | --- | --- | --- | --- |
| CCAACCGGACTTTGGGGCTAGCGTTTAGAAAAGTCTCAAGTCAATCGGTCC (dsDNA; 5'-amino-C6 primer) | SPT15 full length assumed | array | double-stranded DNA, one strand shown | TBP alone | Kd | 0.0388 ± 0.00566 µM |
| Teicoplanin | – | – | QC solution | 2 months, -40 °C, low QC level | recovery | 101% |
| CTCAGGAATTCCTATAAAGTAATGTGGAGCTCAGTTCAAGTCAATCGGTCC (dsDNA; 5'-amino-C6 primer) | SPT15 full length assumed | array | double-stranded DNA, one strand shown | TBP alone | Kd | 0.00169 ± 6e-05 µM |
